Assay results collected from several papers.
Every numbered part comes from another study and shows a few of its results, in no order.

Sample 1
Target: Sal-like protein 4, full length isoform A (SALL4, Homo sapiens, UniProt Q9UJQ4, residues 1-1053)
Chain of UniProt Q9UJQ4 (whole entry, looked up): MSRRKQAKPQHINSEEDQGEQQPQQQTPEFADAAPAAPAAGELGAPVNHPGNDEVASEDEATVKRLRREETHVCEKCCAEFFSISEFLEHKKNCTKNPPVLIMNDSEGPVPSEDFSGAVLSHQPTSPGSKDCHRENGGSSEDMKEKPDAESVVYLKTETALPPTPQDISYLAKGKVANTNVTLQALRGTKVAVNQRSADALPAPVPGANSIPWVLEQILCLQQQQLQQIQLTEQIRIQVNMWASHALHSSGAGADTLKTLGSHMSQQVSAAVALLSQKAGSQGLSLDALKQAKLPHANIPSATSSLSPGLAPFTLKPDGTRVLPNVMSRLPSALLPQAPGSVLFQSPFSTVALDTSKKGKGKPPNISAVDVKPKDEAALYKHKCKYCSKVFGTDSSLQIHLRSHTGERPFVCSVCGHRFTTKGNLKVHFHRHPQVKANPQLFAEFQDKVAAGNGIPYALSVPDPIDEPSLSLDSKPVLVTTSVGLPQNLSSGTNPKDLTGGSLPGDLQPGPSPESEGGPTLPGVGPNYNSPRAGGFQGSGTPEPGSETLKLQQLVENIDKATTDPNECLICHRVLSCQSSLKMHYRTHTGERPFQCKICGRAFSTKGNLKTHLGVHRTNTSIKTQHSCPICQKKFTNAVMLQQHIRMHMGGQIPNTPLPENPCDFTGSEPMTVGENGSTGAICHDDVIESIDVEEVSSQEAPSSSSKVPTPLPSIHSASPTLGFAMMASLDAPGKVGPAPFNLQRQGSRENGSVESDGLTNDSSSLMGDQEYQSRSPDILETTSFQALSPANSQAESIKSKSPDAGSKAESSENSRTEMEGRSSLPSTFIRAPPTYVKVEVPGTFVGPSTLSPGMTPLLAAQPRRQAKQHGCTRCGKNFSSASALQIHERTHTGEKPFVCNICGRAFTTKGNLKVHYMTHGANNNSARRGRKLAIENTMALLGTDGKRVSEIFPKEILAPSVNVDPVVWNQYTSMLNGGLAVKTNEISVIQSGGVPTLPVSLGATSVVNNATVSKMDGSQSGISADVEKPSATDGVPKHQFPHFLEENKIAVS
Method: universal PBM
Molecule type: double-stranded DNA, one strand shown
Matrix: in vitro
Concentration: 600 nM
Notes: 8-mer, flanks averaged, mean of replicates
Direction: higher = stronger binding
Measurement: E-score
ATTTCGCG: 0.105
TAAGCCGA: 0.0698
CACCGAGC: -0.196
CTCGCTCA: -0.0576
CAGTCTGA: -0.0887
GTACAAGA: 0.0139
AACAGGCA: 0.0139
AGGGCACA: 0.053
ACATCACT: 0.208
CCCTTGCA: -0.22
GGCAAAAA: 0.165
AGTGCCTC: -0.221
AGTTTCAG: -0.0658
ATAAATAC: 0.352
GAATTTTA: 0.303
CGTTTCAC: -0.112
GTACCCCA: -0.17
ATCGGTCG: -0.117
ATGGTGTC: 0.0105
GCTCACTA: 0.0049
TAACATAA: 0.356
GATTCCGA: -0.0348
GCTACGCA: -0.138
CGTCATAG: 0.14
GGTCGGGA: -0.23

Sample 2
Target: Fragile X messenger ribonucleoprotein 1, C-terminal low-complexity region (Fmr1, Mus musculus, UniProt P35922)
Method: RNA Bind-n-Seq
Molecule type: RNA
Matrix: in vitro
Concentration: 200 nM
Notes: whole 134-nt RNA, ends assumed
Together with: 150 mM KCl
Reference: input library
Direction: higher = stronger binding
Measurement: log2 enrichment
Constant ends, left off below: GGGAGUUCUACAGUCCGACGAUC … UGGAAUUCUCGGGUGUCAAGG
ACCAUGCAGGUGGGCAUCUUUGGGAAGUGGGGCAAGGGGGGGAGAGGGAGGGGGGUAACACUUUGGGAACAGGUGGUCCCAGGUCGUUUC: 0.678
UCAAGUCCUGUGCUACACAUCGUAUGUACCGAAUCGGUUUGGAAAAAAAGGUGGAAAGUAUUAUGUUACGCCGUUCGGAUCUGCACUUCC: -0.297
UUGACUAUAUUGUGGAGUAUGACUAUGAUGCUGUACAUGAUGAUGAAUUAACUAUUCGAGUUGGAGAAAUCAUCAGGAAUGUGAAAAAGC: -1.45
AGUCCUGUGCUACACAUCGUAUGUACCGAAUCGGGUUUUUUUGGGUGGGAAAAAGGGAAAGUAUUAUGUUACGCCGUUCGGAUCUGCACU: 0.513
GUCCUGUGCUACACAUCGUAUGUACCGAAUCGGGUGGGUUUUUUUGGGAAAAAAAGGGAAAGUAUUAUGUUACGCCGUUCGGAUCUGCAC: 0.112
CACAGACAACACGCACCCACACAGCCACAGAGGGAAGGGGUUGGGAUGGGGACAGGGUGCACAGCAGGGCGGGGUAGGACCCCAGCCCCU: 1.31
UGUGCUACACAUCGUAUGUACCGAAUCGGGGUUUUUUUGGGGUUUUUUUGGGUUUUUUUGGGAAAGUAUUAUGUUACGCCGUUCGGAUCU: 0.0969
AAGUCCUGUGCUACACAUCGUAUGUACCGAAUCGGUUUGGUUUUUGGUUUUUUUGGAAAGUAUUAUGUUACGCCGUUCGGAUCUGCACUU: -0.932
GCAGGAAGUAAAAACAAAUGGAAAUGCUUCGGAUAGUGGCAGGGGUGGGGGUUGCUAUGGAAAGGGUGGGAUGGGAGUGGGUAAAGAGUU: 0.22
GUCCUGUGCUACACAUCGUAUGUACCGAAUCGGGGUUUGGGGAGGGGUUUUUUUGGGGAAAGUAUUAUGUUACGCCGUUCGGAUCUGCAC: 0.573
CCUGUGCUACACAUCGUAUGUACCGAAUCAAACCCCCAAACCCCCCCAAAUUUUUUUAAAAAAGUAUUAUGUUACGCCGUUCGGAUCUGC: -0.153
CUCAAGUCCUGUGCUACACAUCGUAUGUACCGAAUCGGGUUUGGGAGGGUGGGAAAGUAUUAUGUUACGCCGUUCGGAUCUGCACUUCCA: 1.32
UCCUGUGCUACACAUCGUAUGUACCGAAUCGGGGUUUUUGGGUUUUUGGGGUUUUUGGGAAAGUAUUAUGUUACGCCGUUCGGAUCUGCA: 0.503
CUCAAGUCCUGUGCUACACAUCGUAUGUACCGAAUCGGUUGGGUUGGGGUUGGGAAAGUAUUAUGUUACGCCGUUCGGAUCUGCACUUCC: 0.87

Sample 3
Target: RING finger protein unkempt homolog, zinc fingers 1-6, GST-SBP tag (UNK, Homo sapiens, UniProt Q9C0B0, residues 30-357)
Chain of UniProt Q9C0B0 (30-357, looked up): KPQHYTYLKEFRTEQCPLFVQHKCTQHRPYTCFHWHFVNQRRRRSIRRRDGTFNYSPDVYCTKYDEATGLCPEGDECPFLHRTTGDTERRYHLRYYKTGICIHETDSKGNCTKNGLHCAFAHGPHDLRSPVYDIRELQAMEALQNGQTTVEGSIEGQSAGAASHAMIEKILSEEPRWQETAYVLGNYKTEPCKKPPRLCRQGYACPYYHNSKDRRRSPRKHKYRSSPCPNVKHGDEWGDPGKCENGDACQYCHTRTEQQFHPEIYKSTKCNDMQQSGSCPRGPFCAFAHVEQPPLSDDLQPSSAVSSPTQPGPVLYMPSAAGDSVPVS
Method: RNA Bind-n-Seq
Molecule type: RNA
Matrix: in vitro
Concentration: not given
Notes: RNA with constant flanks, human and mouse sites, ends assumed
Reference: input RNA pool
Direction: higher = stronger binding
Measurement: bound/input enrichment
Constant ends, left off below: GGGAGUUCUACAGUCCGACGAUC … CAACAGAGGAUUGAGCAUCA
AAUUUAAUUAAAAUUCAGGCUAUAGCUGUUUGUAUGGAAAAUGGCAACUUUAAAGAAGCAGAAGAAGUCUUUGAAAGAAUAUUUGGUGAUCCAAAUUCUCAUAUGCCUUUCAAAAGCAAA: 0.871 ratio
AAAAAGAUUGACCUGCAGAAAAAACAGACUCAGAGAAAUGUGUUCAGGUGUAAUGUAAUUGGAGUGAAAGGCUGUGGGAAAACUGGAGUUCUUCAGUCUCUCCUUGGAAGAAACCUAAUG: 0.222 ratio
ACGGUCACCAUCCUUGUCAGCCUGGCCCUAGCUUUCCUUGCGUGCAUCGUGUUCCUGGUGGUUUACAAAGCCUUCACCUAUGAUCACAGCUGCCCAGAGGGAUUCGUCUAUAAGCACAAA: 0.114 ratio
GCGCAGUAUAUUACUGCAGCCCUUAGAGAUUUGUUUGAUUCCAUGGAUAAAACUUCUUCCAGUAUUCCACCUAUUAUUCUACUGCAGUUUUUGCACAUGGCUUUCCCACAGUUUGCCGAG: 0.968 ratio
GCCACAUCUGUUGCAGCUCGUGGUCUCGAUGUGAAACAUCUAAUUCUUGUAGUGAAUUACAGCUGCCCCAAUCAUUAUGAAGAUUAUGUGCACAGAGCUGGGCGGACUGGAAGAGCGGGC: 0.301 ratio
GUAAAACUGGUACUUCCAAAGACCAAGUUUUCAAUGGUAUUACCAGAAGUAGAAGCGGCAUUAGCAGAGAUUCCCGGAGUCAGGAGUGUUGUAUUAUUUGGAGUAGAAACUCAUGUGUGC: 0.416 ratio
UCCACAUAUGUACGUGUAUAUAAUUAUACAUAUAUAUAUAUCUAUUUUGCCCAGGUCUGGGUUUCGUUUUUACCCAGACCCUGGCACUCCCUGUCCACUGUGUGUGUGAUCAUGCUGGGA: 0.126 ratio
CUGUCCUCCUUUGAGAUGCAAGGAUGGGGAUGUGACUAGAUAGAGCAGAACUGUUUACCAAACUUUAGAGUGUGAUAAAAACCAUUUUAAAUAGUGGAAAGAUGAAAUCAAAACCAGUAU: 0.636 ratio
GGGGAGGGGGACCUGCACACACCCAUGCUGAAGCUCUCCUAUAGUACCUCACAAGAAUUUAGCUCCCGGGAGGAGCUGCUGUCCCACAAAGAAGAGGAUAAAAGCCAAACAUCUUUUGAU: 1.1 ratio
GCUCUUUCUCAUUCACCAACUAUAUUAGAAGCACUUGAGGGAAAUUUACCACUCCAAAUCCAAAGCAAUGAACAGUCUUUUCUGGAUGAUUUUAUUGCCUGUGUCCCAGGAUCAAGUGGU: 0.377 ratio
UUGGACAGGGCUUAUUUAAUUAAACUUUCUGGUUUGAACAAGGAGACAUAUCAGAGCUGUCUUAAAUCUUUUGAGUGUUUACUGGGCCUGAAUUCAAAUAUUGGAAUAAGAGACCUAGCU: 0.289 ratio

Sample 4
Target: RNA binding protein fox-1 homolog 2, RRM domain, GST-SBP tag (RBFOX2, Homo sapiens, UniProt O43251-10, residues 100-194)
Method: RNA Bind-n-Seq
Molecule type: RNA
Matrix: in vitro
Concentration: 365 nM
Notes: natural RNA segment, single round, ends assumed
Reference: no-protein control
Direction: higher = stronger binding
Measurement: RBNS enrichment (R)
Constant ends, left off below: GGGAGUUCUACAGUCCGACGAUC … UGGAAUUCUCGGGUGCCAA
Target sequence (chain): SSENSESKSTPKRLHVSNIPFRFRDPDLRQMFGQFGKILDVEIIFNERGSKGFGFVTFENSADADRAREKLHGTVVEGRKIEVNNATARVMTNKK
GUUUUGCUGGCACGAAAGAAACUAGAUGGAAAUAUAUGUAAUUCUCUCAUAUUUAAAAACGUAAUCUCUUCUCUUAGAAGUAUAGAUCAUUUUGAAACUUAAUGUACUAC: 1.22
GAGGUCAGGGUCAAUGGGAAUCUGCUCGGACACUCAACAUGGGGGUGGGUGCACUCCUUGGAGGAGGAGGAACACGUUCAGGGGAUUGUGAGGUCUUGCACAAGCCACGU: 0.939
CUGCGCCUGCUGGGGACAGUGUGGCCCUGUCCCAGUAGCUUGAUGACUCAGGGUGGACCUUGCUCCCAGGACUUGUCUCUCCCCAGGCUUUGUAGGCAAGCCUCACAAGC: 5.21
AUUCCAAAAAGACAUGGCAUUCUCCUCAUCAAACUACUUAUUUAUUUCAAAAUAAAACUACCCAUCCUCAUUCAACACUUCCAAUGGGAAAAUUCAGAGAUGAGAUCUUA: 0.815
AUGGGAUUCCAUGCCACCCAAGCUGUCAAAACUGCCACUAAGUCGACGAUGGUGGCUCUCAUACUGACCCAGCCCCACAUGUAUAGCAGUGAACAGCAGGGCUAGGCAAG: 0.4
CGGGAUUAGCUUAGACAUCCUUGCAAAGCGAUCACUUUCAAUAAAUUGGGAAAUUGCUGCUCCAGCAAUGCCUCCUGCGUCUCAGAUGAUCCUUCCUCCGGCCUCGCCUG: 0.269
CCUGCCUUGCUGUUCCUGGGAAGAUGCCAUAGUUUUCGUUACUGGAUGUUUGGAGUAGAUACUGGUCUGUGAUUGGUGGAAUGGAGAACACACGUGUUGGUGCUUCUGGG: 1.31
UCUCUUCUUGCAUGUCCACAGUAAUGUAUUUGUGGUUUUUAUUUUGAACGCUUGCUUUUAGAGAGAAAACAAUAUAGCCCCCUACCCUUUUCCCAAUCCUUUGCCCUCAA: 4.38
GCGGAAGGUUUCUUUAUGUUAUUUUGUUAAUUUAUUGGGACUCUGUGUAAGGCCAGGCUUUAGUGGUCAUUAGACACCACAUGUGUUAUGAGCCCCUUACCCAUAGGGUU: 0.448
CCCUUUAACAAGUUGAGUAAAAAUAAAAGGUAUUUUUUAGUCAAUGUGUUCCAUGAUUUUGCUUAAAUUAAUACUUUUAAGUAAUGGAACUUUUUUCAAAGGCAAAUUUA: 0.811
CCAAUAAUAAAAAACAAGAAACCAAGUGGGCUGGUAUUCUCUCUAUGCAAAAUGUCUGUUUUAGUUGGAAUGACUGAAAGAAGAACAGCUGUUCCUGUGUUCUUCGUAUA: 1.13
GCCAGGAUGAGGACACGCACUGCCCUCCAUAGACACAGAUGAAGGGGUGGGGGUCAUUCAGCUCGAAUGGGUCCCAGAUGCUCACUUGGCCUUUCCCUGCAGGAUGAGUG: 0.557

Repeated from above (sample 3):
AAUUUAAUUAAAAUUCAGGCUAUAGCUGUUUGUAUGGAAAAUGGCAACUUUAAAGAAGCAGAAGAAGUCUUUGAAAGAAUAUUUGGUGAUCCAAAUUCUCAUAUGCCUUUCAAAAGCAAA: 0.871 ratio
GCGCAGUAUAUUACUGCAGCCCUUAGAGAUUUGUUUGAUUCCAUGGAUAAAACUUCUUCCAGUAUUCCACCUAUUAUUCUACUGCAGUUUUUGCACAUGGCUUUCCCACAGUUUGCCGAG: 0.968 ratio
GCUCUUUCUCAUUCACCAACUAUAUUAGAAGCACUUGAGGGAAAUUUACCACUCCAAAUCCAAAGCAAUGAACAGUCUUUUCUGGAUGAUUUUAUUGCCUGUGUCCCAGGAUCAAGUGGU: 0.377 ratio
GUAAAACUGGUACUUCCAAAGACCAAGUUUUCAAUGGUAUUACCAGAAGUAGAAGCGGCAUUAGCAGAGAUUCCCGGAGUCAGGAGUGUUGUAUUAUUUGGAGUAGAAACUCAUGUGUGC: 0.416 ratio
GCCACAUCUGUUGCAGCUCGUGGUCUCGAUGUGAAACAUCUAAUUCUUGUAGUGAAUUACAGCUGCCCCAAUCAUUAUGAAGAUUAUGUGCACAGAGCUGGGCGGACUGGAAGAGCGGGC: 0.301 ratio
GGGGAGGGGGACCUGCACACACCCAUGCUGAAGCUCUCCUAUAGUACCUCACAAGAAUUUAGCUCCCGGGAGGAGCUGCUGUCCCACAAAGAAGAGGAUAAAAGCCAAACAUCUUUUGAU: 1.1 ratio
UUGGACAGGGCUUAUUUAAUUAAACUUUCUGGUUUGAACAAGGAGACAUAUCAGAGCUGUCUUAAAUCUUUUGAGUGUUUACUGGGCCUGAAUUCAAAUAUUGGAAUAAGAGACCUAGCU: 0.289 ratio
AAAAAGAUUGACCUGCAGAAAAAACAGACUCAGAGAAAUGUGUUCAGGUGUAAUGUAAUUGGAGUGAAAGGCUGUGGGAAAACUGGAGUUCUUCAGUCUCUCCUUGGAAGAAACCUAAUG: 0.222 ratio
CUGUCCUCCUUUGAGAUGCAAGGAUGGGGAUGUGACUAGAUAGAGCAGAACUGUUUACCAAACUUUAGAGUGUGAUAAAAACCAUUUUAAAUAGUGGAAAGAUGAAAUCAAAACCAGUAU: 0.636 ratio
